Experimental data collected from several papers.
Several values in a cell are separate wells, animals, samples, runs or records. ± marks the error that the study gave.
T1: ssDNA, aptamer; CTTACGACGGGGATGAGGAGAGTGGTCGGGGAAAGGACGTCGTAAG
Sequence of UniProt Q16774 (whole entry, unmodified, looked up): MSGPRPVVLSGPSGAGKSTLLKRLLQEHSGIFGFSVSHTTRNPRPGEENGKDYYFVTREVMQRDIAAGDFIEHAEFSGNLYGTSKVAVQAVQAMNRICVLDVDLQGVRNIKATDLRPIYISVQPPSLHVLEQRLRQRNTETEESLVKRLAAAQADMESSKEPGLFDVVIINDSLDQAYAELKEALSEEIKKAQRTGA
Sequence of UniProt P51575 (whole entry, unmodified, looked up): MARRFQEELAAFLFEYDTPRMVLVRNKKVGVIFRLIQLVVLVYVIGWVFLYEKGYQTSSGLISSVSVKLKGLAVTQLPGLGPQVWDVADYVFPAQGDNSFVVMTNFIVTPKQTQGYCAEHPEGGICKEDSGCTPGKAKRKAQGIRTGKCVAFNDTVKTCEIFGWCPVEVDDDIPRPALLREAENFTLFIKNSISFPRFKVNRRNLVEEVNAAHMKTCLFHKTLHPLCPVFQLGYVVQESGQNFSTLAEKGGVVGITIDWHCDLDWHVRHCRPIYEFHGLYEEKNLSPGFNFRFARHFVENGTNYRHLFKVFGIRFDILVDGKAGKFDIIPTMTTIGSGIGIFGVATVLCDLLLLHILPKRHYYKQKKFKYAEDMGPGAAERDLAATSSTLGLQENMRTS
Sequence of UniProt Q07011 (whole entry, looked up): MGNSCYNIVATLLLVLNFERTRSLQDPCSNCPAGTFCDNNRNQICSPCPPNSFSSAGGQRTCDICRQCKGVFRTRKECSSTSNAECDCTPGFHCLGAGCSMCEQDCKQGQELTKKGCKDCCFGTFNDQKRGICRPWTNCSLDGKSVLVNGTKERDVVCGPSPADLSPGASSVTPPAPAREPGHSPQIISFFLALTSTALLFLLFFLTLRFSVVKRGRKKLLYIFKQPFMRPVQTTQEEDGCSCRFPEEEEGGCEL
Sequence of UniProt P0A8T7 (whole entry, looked up): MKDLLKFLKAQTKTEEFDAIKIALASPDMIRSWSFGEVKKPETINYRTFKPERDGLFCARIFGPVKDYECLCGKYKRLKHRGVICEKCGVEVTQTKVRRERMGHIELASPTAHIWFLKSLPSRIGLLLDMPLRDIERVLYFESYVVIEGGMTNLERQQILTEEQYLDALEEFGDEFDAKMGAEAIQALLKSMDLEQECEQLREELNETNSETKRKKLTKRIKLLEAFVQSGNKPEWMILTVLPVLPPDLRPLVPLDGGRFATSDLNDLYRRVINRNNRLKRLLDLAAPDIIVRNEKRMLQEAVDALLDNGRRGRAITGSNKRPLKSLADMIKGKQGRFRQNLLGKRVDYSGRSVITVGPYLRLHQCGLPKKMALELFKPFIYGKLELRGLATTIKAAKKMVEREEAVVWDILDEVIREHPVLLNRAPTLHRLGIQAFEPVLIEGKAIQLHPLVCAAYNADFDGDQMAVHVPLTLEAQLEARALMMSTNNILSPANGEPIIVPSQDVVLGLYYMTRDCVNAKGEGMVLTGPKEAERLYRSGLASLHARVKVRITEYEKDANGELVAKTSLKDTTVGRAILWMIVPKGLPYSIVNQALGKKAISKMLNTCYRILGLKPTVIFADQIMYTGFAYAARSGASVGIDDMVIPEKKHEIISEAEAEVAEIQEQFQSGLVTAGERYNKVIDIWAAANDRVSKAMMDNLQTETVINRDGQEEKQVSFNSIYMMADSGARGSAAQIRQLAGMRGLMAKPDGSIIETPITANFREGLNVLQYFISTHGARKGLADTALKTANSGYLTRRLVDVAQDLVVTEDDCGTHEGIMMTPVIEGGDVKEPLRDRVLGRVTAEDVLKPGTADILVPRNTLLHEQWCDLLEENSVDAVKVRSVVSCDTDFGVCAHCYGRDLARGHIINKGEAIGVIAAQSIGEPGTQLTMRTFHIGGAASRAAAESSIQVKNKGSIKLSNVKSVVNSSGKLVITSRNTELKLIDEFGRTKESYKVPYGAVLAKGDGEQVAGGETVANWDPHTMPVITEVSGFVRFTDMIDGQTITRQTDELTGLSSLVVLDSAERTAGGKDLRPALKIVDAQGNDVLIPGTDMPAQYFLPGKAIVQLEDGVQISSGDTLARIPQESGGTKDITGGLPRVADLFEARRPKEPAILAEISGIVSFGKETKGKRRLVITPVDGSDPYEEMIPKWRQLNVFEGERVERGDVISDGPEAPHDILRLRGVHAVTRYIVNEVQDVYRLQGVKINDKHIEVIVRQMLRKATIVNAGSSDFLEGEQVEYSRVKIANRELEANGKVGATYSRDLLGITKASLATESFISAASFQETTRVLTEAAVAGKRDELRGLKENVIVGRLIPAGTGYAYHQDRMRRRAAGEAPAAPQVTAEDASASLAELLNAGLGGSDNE
Sequence of UniProt Q8IUN9 (whole entry, unmodified, looked up): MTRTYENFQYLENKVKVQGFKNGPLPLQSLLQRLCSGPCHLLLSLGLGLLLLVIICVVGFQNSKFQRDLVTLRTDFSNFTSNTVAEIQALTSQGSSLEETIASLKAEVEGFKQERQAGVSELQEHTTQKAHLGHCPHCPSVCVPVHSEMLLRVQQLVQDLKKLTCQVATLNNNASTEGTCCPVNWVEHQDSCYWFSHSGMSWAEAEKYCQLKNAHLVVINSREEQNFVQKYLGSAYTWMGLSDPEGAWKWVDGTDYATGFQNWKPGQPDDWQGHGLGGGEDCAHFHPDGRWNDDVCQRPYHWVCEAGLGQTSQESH
Sequence of UniProt P0A8V2 (whole entry, looked up): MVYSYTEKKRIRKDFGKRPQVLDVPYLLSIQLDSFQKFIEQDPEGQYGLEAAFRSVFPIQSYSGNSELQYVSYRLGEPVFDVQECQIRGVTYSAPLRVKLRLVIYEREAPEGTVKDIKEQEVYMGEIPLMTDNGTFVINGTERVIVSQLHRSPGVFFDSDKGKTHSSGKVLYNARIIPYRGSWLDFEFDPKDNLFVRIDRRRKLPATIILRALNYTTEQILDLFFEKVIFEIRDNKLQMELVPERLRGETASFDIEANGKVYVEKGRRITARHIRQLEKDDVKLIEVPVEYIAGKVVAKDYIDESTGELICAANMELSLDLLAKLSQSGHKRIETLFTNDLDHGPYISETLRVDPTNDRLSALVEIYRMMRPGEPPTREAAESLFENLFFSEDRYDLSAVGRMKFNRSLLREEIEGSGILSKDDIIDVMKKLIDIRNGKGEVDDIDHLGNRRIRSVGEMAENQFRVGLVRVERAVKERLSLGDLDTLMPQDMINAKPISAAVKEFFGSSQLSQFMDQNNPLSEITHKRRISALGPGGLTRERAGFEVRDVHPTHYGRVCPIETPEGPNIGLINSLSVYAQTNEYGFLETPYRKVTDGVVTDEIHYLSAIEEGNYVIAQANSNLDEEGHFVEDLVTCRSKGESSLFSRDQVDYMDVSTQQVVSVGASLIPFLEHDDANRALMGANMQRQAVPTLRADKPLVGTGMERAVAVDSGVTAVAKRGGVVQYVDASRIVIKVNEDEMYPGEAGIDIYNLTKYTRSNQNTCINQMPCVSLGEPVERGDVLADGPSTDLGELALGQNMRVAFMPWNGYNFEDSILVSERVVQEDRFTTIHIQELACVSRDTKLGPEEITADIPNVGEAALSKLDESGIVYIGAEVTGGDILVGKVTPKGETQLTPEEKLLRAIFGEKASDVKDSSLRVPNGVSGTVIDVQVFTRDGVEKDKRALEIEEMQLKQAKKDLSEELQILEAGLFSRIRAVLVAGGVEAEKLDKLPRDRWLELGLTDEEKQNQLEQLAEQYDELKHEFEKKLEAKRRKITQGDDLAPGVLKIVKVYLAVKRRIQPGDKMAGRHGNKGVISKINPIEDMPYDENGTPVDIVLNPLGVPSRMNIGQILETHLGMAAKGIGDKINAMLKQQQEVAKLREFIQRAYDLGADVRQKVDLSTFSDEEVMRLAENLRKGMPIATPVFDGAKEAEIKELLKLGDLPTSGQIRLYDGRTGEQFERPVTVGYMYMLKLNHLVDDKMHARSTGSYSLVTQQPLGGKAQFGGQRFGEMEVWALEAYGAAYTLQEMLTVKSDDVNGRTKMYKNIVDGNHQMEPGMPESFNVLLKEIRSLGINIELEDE
Sequence of UniProt P47898 (whole entry, looked up): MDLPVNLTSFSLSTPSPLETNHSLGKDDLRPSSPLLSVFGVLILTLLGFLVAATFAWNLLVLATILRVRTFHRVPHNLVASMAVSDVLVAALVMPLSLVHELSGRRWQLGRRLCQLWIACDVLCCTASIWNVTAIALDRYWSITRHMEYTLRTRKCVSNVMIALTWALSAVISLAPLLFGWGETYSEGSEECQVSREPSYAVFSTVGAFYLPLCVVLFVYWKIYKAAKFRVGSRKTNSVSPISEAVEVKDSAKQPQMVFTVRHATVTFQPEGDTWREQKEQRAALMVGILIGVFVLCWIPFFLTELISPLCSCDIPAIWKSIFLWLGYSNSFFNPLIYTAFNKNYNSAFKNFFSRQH
Sequence of UniProt Q96NY8 (whole entry, looked up): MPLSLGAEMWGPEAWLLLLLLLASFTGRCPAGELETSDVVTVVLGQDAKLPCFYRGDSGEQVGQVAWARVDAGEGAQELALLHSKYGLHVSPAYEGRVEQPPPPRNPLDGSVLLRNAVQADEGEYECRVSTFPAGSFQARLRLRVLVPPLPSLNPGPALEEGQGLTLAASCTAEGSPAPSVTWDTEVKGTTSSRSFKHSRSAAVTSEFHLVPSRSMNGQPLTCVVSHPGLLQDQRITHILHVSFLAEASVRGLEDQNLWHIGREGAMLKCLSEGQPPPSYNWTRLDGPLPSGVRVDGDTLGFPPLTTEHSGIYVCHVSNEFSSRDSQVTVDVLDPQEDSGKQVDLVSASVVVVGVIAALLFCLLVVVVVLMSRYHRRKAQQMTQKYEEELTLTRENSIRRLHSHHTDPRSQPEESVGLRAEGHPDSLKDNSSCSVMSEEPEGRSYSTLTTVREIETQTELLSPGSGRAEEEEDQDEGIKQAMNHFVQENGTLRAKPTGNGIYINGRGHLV

Structure (SMILES) | tested on | assay | system | setting | how to read | endpoint | value
O=C1Cc2cc(CCN3CCN(c4nsc5ccccc45)CC3)c(Cl)cc2N1 | human iPSC-derived cardiomyocytes | MyBP-C/MYH ratio, plate-normalised SD score |  | concentration not given, primary screen | direction not given | activity score | 3.3
NC(=O)C[C@H](N)C(=O)O | Methyl-accepting chemotaxis protein, ligand-binding domain (Pectobacterium atrosepticum, UniProt Q6D6I9) | thermal shift |  | ligand-binding domain | relative to: ligand-free protein | ΔTm | 8.6 °C
CCCC[C@@H]1NC(=O)[C@H](Cc2ccc(O)cc2)NC(=O)[C@@H]2CCCN2C(=O)[C@H](CC(=O)O)NC(=O)[C@H](C)NC(=O)[C@H](Cc2ccccc2)NC(=O)[C@@H]2CSCCC(=O)N3CN(CN(C3)C(=O)CCSC[C@@H](C(=O)N[C@@H](CNC(=O)CCc3cn(CC(=O)N[C@H]4CSCCC(=O)N5CN6CN(C5)C(=O)CCSC[C@H](NC(=O)[C@@H](CC(=O)O)NC(=O)[C@H](Cc5cccc7ccccc57)NC(=O)[C@@H]5CCCN5C4=O)C(=O)N[C@@H](CCSC)C(=O)N[C@@H](CCCCNC(=N)N)C(=O)N[C@@H](CC(=O)O)C(=O)N[C@@H](Cc4c[nH]c5ccccc45)C(=O)N[C@@H](CO)C(=O)N[C@@H]([C@@H](C)O)C(=O)N4CCC[C@H]4C(=O)N4C[C@H](O)C[C@H]4C(=O)N[C@@H](Cc4c[nH]c5ccccc45)C(=O)N[C@H](C(N)=O)CSCCC6=O)nn3)C(N)=O)NC1=O)C(=O)CCSC[C@H](NC(C)=O)C(=O)N[C@@H](CC(C)(C)C)C(=O)N1CCC[C@H]1C(=O)N[C@@H](CCC(=O)O)C(=O)N[C@H](C)C(=O)N1CCC[C@H]1C(=O)N[C@@H](Cc1ccc(O)cc1)C(=O)N2 | Tumor necrosis factor receptor superfamily member 9/Nectin-4 (Homo sapiens, UniProt Q07011+Q96NY8) | reporter gene, agonist | HT-1376 coculture with reporter cells |  | relative to: background | Emax | 37 fold
CC(=O)N[C@H]1[C@@H](OC(C)C(N)C(=O)O)O[C@H](CO[C@]2(C(=O)O)C[C@H](O)[C@@H](NC(C)=O)[C@H]([C@H](O)[C@H](O)CO)O2)[C@H](O)[C@@H]1O (stereo partly drawn) | CLEC10A, carbohydrate recognition domain (Homo sapiens, UniProt Q8IUN9) | binding to carbohydrate recognition domain, isothermal titration calorimetry |  | 293 K |  | ΔH | -12 ± 1 kcal/mol
Nc1ncnc2c1ncn2[C@@H]1O[C@H](COP(=O)(O)CP(=O)(O)OP(=O)(O)O)[C@@H](O)[C@H]1O | P2X purinoceptor 1 (P2RX1, Homo sapiens, UniProt P51575, R292A) | saturation binding | HEK293 | 79 nM |  | specific binding | 144 CCPM and 180 CCPM
COCCNc1nc(Oc2cccc3[nH]c(=O)c(N)nc23)cc(-c2ccc(C(F)(F)F)cc2)n1 | Transient receptor potential cation channel subfamily V member 1 (TRPV1, Homo sapiens, UniProt Q8NER1) | antagonist, automated patch clamp | HEK-293T expressing hTRPV1 | 1 µM, together with: 100 nM capsaicin |  | reversal potential change | -16.1 ± 0.3 mV
Cn1cc(-c2ccc(-c3cncc(Cl)c3N3CCC4(CCNC4=O)CC3)cc2)cn1 | COLO 205 | gene expression, microarray, item: GLS mRNA |  | concentration not given, 6 h | relative to: untreated cells | log2 fold change | 1.56
Nc1nc2c(ncn2[C@@H]2O[C@H](COP(=O)(O)O)[C@@H](O)[C@H]2O)c(=O)[nH]1 | GUK1 (Homo sapiens, UniProt Q16774, R148A) | enzyme activity, NADH-coupled |  | 62.5 µM |  | reaction rate | -0.165 s⁻¹ and 0.0661 s⁻¹ and 0.0464 s⁻¹
C[C@H]1O[C@@H](O[C@H]2CC[C@@]3(C)[C@@H](CC[C@]4(C)[C@@H]3C=CC3=C5CC(C)(C)CC[C@]5(CO)[C@@H](O)C[C@]34C)[C@]2(C)CO)[C@H](O)[C@@H](O[C@@H]2O[C@H](CO)[C@@H](O)[C@H](O)[C@H]2O)[C@H]1O | NAD-dependent protein deacetylase sirtuin-1 (SIRT1, Homo sapiens, UniProt Q96EB6) | binding, microscale thermophoresis |  | 185 nM |  | MST normalised fluorescence | 884 a.u.
Nc1ncnc2c1ncn2[C@@H]1O[C@H](COP(=O)(O)OP(=O)(O)O)[C@@H](O)[C@H]1O | T1, ssDNA, aptamer | ITC |  |  |  | Kd | 207 µM
C[C@@H]1O[C@@H](OC[C@H]2O[C@@H](Oc3c(-c4ccc(O)c(O)c4)oc4cc(O)cc(O)c4c3=O)[C@H](O)[C@@H](O)[C@@H]2O)[C@H](O)[C@H](O)[C@H]1O | human iPSC-derived cardiomyocytes | MyBP-C/MYH ratio, plate-normalised SD score |  | concentration not given, primary screen | direction not given | activity score | 3.3
COc1cc(F)ccc1-c1ncnc(Nc2cccc(C[S@](C)(=N)=O)c2)n1 | Activin receptor type-1B (ACVR1B, Homo sapiens, UniProt P36896) | kinase activity |  | 10 µM, together with: 10 µM ATP |  | remaining activity | 87%
Nc1nc2c(ncn2[C@@H]2O[C@H](COP(=O)(O)OP(=O)(O)OP(=O)(O)O)[C@@H](O)[C@H]2O)c(=O)[nH]1 | DNA-directed RNA polymerase subunit beta' / DNA-directed RNA polymerase subunit beta (rpoC/rpoB, Escherichia coli, UniProt P0A8T7+P0A8V2) | RNA extension, rapid quench-flow | Escherichia coli, elongation complex, 6-MI template | 200 µM, 25 °C, fast complex fraction |  | nucleotide addition rate | 34 ± 2 s⁻¹
Cc1ccnc(C)c1OC[C@H]1CN(CCN2CCc3ccccc32)CCO1 | 5-hydroxytryptamine receptor 5A (HTR5A, Homo sapiens, UniProt P47898) | radioligand binding |  | concentration not given, together with: [3H]LSD |  | inhibition | -16.4%
Cc1cc(-c2cccc(-n3cc(COC(=O)[C@]4(C)C=C(C(=O)OC(C)(C)C)C(=O)CC4)nn3)c2)c(C)c2c1CNCC2 | Mitogen-activated protein kinase 8 (MAPK8, Homo sapiens, UniProt P45983) | D-peptide binding, inhibitor, FP peptide displacement |  | 200 µM | lower is stronger displacement | fraction bound | 0.0542

Some of these lines once more:
Structure (SMILES) | tested on | assay | system | setting | how to read | endpoint | value
COc1cc(F)ccc1-c1ncnc(Nc2cccc(C[S@](C)(=N)=O)c2)n1 | Activin receptor type-1B (ACVR1B, Homo sapiens, UniProt P36896) | kinase activity |  | 10 µM, together with: 10 µM ATP |  | remaining activity | 87%
